Published values collected from several papers.
Every numbered part comes from another study and shows a few of its results, in no order. Substitutions count along the parent as printed.

Sample 1 — method: universal PBM; form: double-stranded DNA, one strand shown; sample: in vitro; concentration: 600 nM; direction: higher = stronger binding; endpoint: E-score
Target: Sal-like protein 4, full length isoform A (SALL4, Homo sapiens, UniProt Q9UJQ4, residues 1-1053)
Sequence of UniProt Q9UJQ4 (whole entry, looked up): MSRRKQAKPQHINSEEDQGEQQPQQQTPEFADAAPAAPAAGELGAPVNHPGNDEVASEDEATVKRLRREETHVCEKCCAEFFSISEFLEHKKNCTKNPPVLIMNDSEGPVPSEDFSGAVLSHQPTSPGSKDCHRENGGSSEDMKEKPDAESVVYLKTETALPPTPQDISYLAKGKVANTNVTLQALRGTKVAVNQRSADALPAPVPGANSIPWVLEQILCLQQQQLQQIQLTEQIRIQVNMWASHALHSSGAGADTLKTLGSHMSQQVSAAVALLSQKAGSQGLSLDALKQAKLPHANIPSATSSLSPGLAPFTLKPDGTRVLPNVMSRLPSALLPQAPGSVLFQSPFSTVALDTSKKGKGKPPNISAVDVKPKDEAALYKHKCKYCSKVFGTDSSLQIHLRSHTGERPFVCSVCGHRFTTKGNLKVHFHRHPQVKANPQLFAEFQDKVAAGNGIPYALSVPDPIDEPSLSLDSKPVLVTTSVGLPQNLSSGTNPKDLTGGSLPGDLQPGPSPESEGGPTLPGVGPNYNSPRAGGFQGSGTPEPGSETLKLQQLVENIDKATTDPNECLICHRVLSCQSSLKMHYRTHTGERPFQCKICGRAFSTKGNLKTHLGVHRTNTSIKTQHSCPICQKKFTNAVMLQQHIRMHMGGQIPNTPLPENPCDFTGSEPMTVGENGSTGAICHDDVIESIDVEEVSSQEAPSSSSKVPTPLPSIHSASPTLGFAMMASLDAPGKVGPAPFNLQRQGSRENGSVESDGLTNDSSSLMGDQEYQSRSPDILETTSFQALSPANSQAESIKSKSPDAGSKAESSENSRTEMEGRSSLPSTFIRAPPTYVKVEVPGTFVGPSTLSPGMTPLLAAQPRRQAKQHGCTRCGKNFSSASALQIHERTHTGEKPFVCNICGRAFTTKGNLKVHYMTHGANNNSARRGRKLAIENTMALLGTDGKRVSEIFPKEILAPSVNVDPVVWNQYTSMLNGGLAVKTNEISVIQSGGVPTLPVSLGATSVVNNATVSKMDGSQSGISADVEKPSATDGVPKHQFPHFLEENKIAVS
Setting: 8-mer, flanks averaged, mean of replicates
ACGTGGCT: -0.171
GCTTCGCC: -0.308
ACAAGGGT: 0.0437
AGCCCACT: -0.17
ACCGCTAG: -0.243
ACAAAACA: 0.159
AAGTGATC: 0.0977
TCACACCA: 0.0362
CGCCTCCC: -0.298

Sample 2 — method: RNA Bind-n-Seq; form: RNA; sample: in vitro; concentration: 365 nM; reference: no-protein control; direction: higher = stronger binding; endpoint: RBNS enrichment (R)
Target: RNA binding protein fox-1 homolog 2, RRM domain, GST-SBP tag (RBFOX2, Homo sapiens, UniProt O43251-10, residues 100-194)
Setting: natural RNA segment, single round, ends assumed
All sequences stand within: GGGAGUUCUACAGUCCGACGAUC … UGGAAUUCUCGGGUGCCAA
Construct (chain): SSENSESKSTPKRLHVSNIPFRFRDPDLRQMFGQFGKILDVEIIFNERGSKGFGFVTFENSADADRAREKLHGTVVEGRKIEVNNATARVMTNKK
GGAUGGCGGUUUGGAUUUCUUUGCUCAGAGCCAAUGCAGUUGACACAGUGGCUGCUGGGUUACUGUCCCAUGAGACUGUACUGGACGGGUGCAGCCAGAGUGGCGCAGUG: 0.458
UCUACGUGUAUAGUUCUCCAUGCUCACUAACUCUCCUUCUCUGGGAAGCAGAUGUACAUACUACAUACAUGUCACAUACUACAUACAUGUCAUGUACUACACACAUGUCA: 0.353
GGCUGGAGAGAUGGCUCAGUGGUUAAAAGCACUGGCUGCUCUUGGUCAGGACACUAGUUCAGUUCCCAGUACCCACAUGGUGGCUCACAACCUUCUGUGACUACAGUUCC: 0.224
UGCUUCACUGAUCUUAAGUAUUAUCGGUUUGCUGUCUCAACUAGCAGUAGACAUUGAAACCAGAGAUUGUCUUCAGAAUACAUAUAAUCUGAAUAGUGUGCUGGCGGGAG: 0.33
CAACUCCUUGUCGUCCUAAUCUGCAAACCCAGACCCAGACCCUUUCCGCAGCCGCCUCCUCUUCCUCCAGAGGCAACAUUCCUUAUUCACCAACUAGUCUCAAAAGAUUG: 0.541
GUUCACCUGUGACCUUGGGCUGGGAUUCUCUUUAGGAAAAAAGGCUACUACUAUGUUAUGAGAGUCAAAAAUAACUCCUUGUGUUUGCUUAAUUUAUUGUUUAACACCCC: 1.48
UCUUUUGCACUUUUCUUACCUGAUAAGUCUCCUCCACUGGCUUCAUCGGGCAGACUUUCUGCCACUGGCUUUUCAAACACUGUCAAUUGGGUUAUUUUUUUACACAGCUG: 0.547

Sample 3 — target: CCND1, cyclin fold, Cln2 fusion (human); method: yeast growth competition, sequencing; sample: yeast; setting: weak parent motif; reference: not given; direction: higher = stronger binding; endpoint: normalised enrichment score
Parent: WEE1 docking peptide (human); HKTFRKLRLFDTP; partner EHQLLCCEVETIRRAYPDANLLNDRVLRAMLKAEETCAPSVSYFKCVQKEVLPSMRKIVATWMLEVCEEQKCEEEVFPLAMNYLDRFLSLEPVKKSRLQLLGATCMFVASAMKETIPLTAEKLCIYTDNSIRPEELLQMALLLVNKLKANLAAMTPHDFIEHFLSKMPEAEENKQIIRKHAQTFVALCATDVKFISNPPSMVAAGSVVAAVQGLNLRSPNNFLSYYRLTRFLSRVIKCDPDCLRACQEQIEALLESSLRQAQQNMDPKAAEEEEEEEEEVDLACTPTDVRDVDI
HKTFRKLMLFDTP [R8M]: 0.458
HKTFRHLRLFDTP [K6H]: -0.151
HKTFRKLRLFLTP [D11L]: 0.349
HKTFRPLRLFDTP [K6P]: 0.598
HKTFRKLRLFMTP [D11M]: 0.22
HKTFRKLRLFDTT [P13T]: 0.516

Further values, each from its own experiment
PhoQ, residues 284 288 289 292 302 303 NLGVHL
fold induction (PhoP, residues 12 14 15 18 19 TQAIL (Escherichia coli, UniProt P23836); Sort-seq, item: YFP reporter; E. coli; PhoQ-PhoP variant library, with: 10 µM Mg2+; reference: high Mg2+ state, higher = stronger signaling): 5.93

Repeated from above (sample 1):
AAGTGATC: 0.0977
TCACACCA: 0.0362
ACGTGGCT: -0.171
AGCCCACT: -0.17
